Measured values from different studies.
Protocols differ between the studies behind these lines. ± gives the spread as reported.
UCHL1: Ubiquitin carboxyl-terminal hydrolase isozyme L1 (UCHL1, Homo sapiens, UniProt P09936)
UniProt P09936, sequence (whole entry, looked up): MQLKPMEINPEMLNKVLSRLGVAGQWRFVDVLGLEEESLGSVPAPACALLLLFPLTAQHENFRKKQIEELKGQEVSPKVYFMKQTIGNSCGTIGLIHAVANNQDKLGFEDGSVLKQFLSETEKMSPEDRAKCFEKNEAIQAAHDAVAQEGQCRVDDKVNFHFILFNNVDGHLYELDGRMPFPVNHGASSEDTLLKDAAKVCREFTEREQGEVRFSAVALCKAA

C=CC(=O)NC(=O)NCc1ccccc1
labelling (UCHL1; covalent, intact protein LC-MS; 12.5 µM): 10.6%

N#C[C@@]1(c2ccc3c(N)ncnn23)O[C@H](CO)[C@@H](O)[C@H]1O
Cmax (dog, plasma; oral, 5 mg/kg, solution, recalculated NCATS data): 17.4 µM

COc1ccc(-n2nc(C(N)=O)c3c2C(=O)N(c2ccc(N4CCCCC4=O)cc2)CC3)cc1
Cmax (healthy mixed-breed dogs; oral, 0.5 mg/kg every 12 h, 7 days): 822 ng/mL

Cn1c(C(F)(F)F)cc(=O)n(-c2cc(Oc3cccnc3OCC(=O)O)c(Cl)cc2F)c1=O
Cmax (beagle dog, male, plasma; oral capsule, 300 mg/kg/day epyrifenacil, day 1, 90-day study): 5210 ng/mL

C=CC(=O)NC1CCN(c2ncc3ncnc(Nc4ccc(Oc5ccc6c(c5)ncn6C)c(C)c4)c3n2)CC1
Cmax reduction (male beagle dog, plasma; oral, 3 mg/kg, high vs low gastric pH, with: pentagastrin or famotidine pretreatment): ~94%

COc1cc2c3c(n(CCCN4CCOCC4)c(=O)c2cc1OC)-c1cc2c(cc1C3=O)OCO2
Cmax (beagle dog, male, plasma; intravenous infusion, 50 mg/m^2, 1 h infusion, vehicle 1): 333 ± 43 ng/mL

O=C(NC[C@H]1CN(c2ccc(N3CCOCC3=O)cc2)C(=O)O1)c1ccc(Cl)s1
Cmax (healthy mixed-breed dogs, plasma; oral, 0.5 mg/kg every 12 h for 7 days): 161 ± 58 ng/mL

COc1ccc(C[C@@H](C)[C@@H](C)Cc2ccc(OC)c(OC)c2)cc1OC
Cmax (beagle dog female, plasma; oral, 1000 mg/kg/day, day 28): 1590 ± 285 ng/mL

Cc1cccc(C)c1NC(=O)C(C#N)=Cc1ccc(OC(F)F)cc1
labelling (UCHL1; covalent, intact protein LC-MS; 12.5 µM): 28.3%

Cc1nc(-c2cnc(NC(C)C)n(C)c2=O)ccc1Oc1ccnc(-c2cnn(C)c2)c1
Cmax (Beagle dog, male, plasma; oral, 10 mg/kg, crossover study, mean): 3310 ng/mL
